Measurements from different studies.
Lines come from different studies, so protocols differ. ± gives the spread as reported.
Chain of UniProt G5EFZ1 (whole entry, looked up): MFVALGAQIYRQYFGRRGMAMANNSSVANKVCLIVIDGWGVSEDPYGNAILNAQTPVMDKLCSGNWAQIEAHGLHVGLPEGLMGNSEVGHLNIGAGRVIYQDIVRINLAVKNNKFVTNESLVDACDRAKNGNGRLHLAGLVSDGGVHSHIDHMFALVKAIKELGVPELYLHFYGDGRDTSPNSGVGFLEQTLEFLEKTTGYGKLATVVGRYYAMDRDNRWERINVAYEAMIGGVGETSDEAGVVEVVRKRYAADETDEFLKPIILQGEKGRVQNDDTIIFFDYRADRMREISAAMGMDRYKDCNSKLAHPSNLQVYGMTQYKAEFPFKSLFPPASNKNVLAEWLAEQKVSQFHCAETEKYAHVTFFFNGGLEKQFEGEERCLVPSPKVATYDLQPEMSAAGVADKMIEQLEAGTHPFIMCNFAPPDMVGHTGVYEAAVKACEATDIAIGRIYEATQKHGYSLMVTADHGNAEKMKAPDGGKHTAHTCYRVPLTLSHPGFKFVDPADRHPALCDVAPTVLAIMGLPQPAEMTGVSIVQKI

CC[C@H](C)[C@H]1C(=O)O[C@H](C(C)C)C(=O)N(C)[C@@H]([C@@H](C)CC)C(=O)O[C@H](C(C)C)C(=O)N(C)[C@@H]([C@@H](C)CC)C(=O)O[C@H](C(C)C)C(=O)N1C
IC50 (murine cancer cells; cytotoxicity): 7.5 µM

CCCCn1cc(C(=O)O)c(=O)c2cc(F)c(Nc3cccc(Cl)c3)c([N+](=O)[O-])c21
IC50 (HCT-116; cell growth, SRB; 72 h): 33.8 ± 2.02 µg/mL

CC=C(C)C(=O)OC1C(O)C2OC(COC(=O)CCC(=O)CCCCCCC(CCCCC)OC3OC(C)C(OC(C)=O)C(O)C3O2)C1OC(=O)CCc1ccccc1 (stereo not drawn)
IC50 (MDA-MB-231; cytotoxicity): 0.98 µM

COc1ccc(CNc2nc(N3CCC[C@H]3CO)ncc2C(=O)NN)cc1Cl
revertant count (Salmonella typhimurium; TA97a; 125 µg/plate, 48 h, together with: rat liver S9): 154 ± 7

CC=C(C)C(=O)OC1C(O)C2OC(COC(=O)CCC(=O)CCCCCCC(CCCCC)OC3OC(C)C(O)C(O)C3O2)C1OC(=O)C=Cc1ccccc1 (stereo not drawn)
IC50 (MCF-10A; cytotoxicity): 0.297 µM

N=C(N)NCCC[C@@H]1NC(=O)[C@H](CCCCNC(=O)CNC(=O)CNC(=O)CNC(=O)CC[C@H](NC(=O)CCOCCOCCOCCOCCNC(=O)CC[C@H](NC(=O)CN2CCN(CC(=O)O)CCN(CC(=O)O)CCN(CC(=O)O)CC2)C(=O)NCCOCCOCCOCCOCCC(=O)N[C@@H](CCC(=O)NCC(=O)NCC(=O)NCC(=O)NCCCC[C@@H]2NC(=O)[C@@H](Cc3ccccc3)NC(=O)[C@H](CC(=O)O)NC(=O)CNC(=O)[C@H](CCCNC(=N)N)NC2=O)C(=O)NCC(=O)NCC(=O)NCC(=O)NCCCC[C@@H]2NC(=O)[C@@H](Cc3ccccc3)NC(=O)[C@H](CC(=O)O)NC(=O)CNC(=O)[C@H](CCCNC(=N)N)NC2=O)C(=O)NCC(=O)NCC(=O)NCC(=O)NCCCC[C@@H]2NC(=O)[C@@H](Cc3ccccc3)NC(=O)[C@H](CC(=O)O)NC(=O)CNC(=O)[C@H](CCCNC(=N)N)NC2=O)NC(=O)[C@@H](Cc2ccccc2)NC(=O)[C@H](CC(=O)O)NC(=O)CNC1=O [indium-111 labelled]
tissue uptake (female athymic nude mice, eyes; intravenous, 3 µCi, 72 h, U-87 MG glioma xenograft): 0.35 ± 0.24 %ID/g

CCCC[C@H](NC(=O)CNC(=O)CNC(=O)c1ccc(NN)nc1)C(=O)N[C@H]1CC(=O)NCCCC[C@@H](C(N)=O)NC(=O)[C@H](Cc2c[nH]c3ccccc23)NC(=O)[C@H](CCCNC(=N)N)NC(=O)[C@@H](Cc2ccccc2)NC(=O)[C@H](Cc2c[nH]cn2)NC1=O [technetium-99m labelled]
tissue uptake ratio (C57 mouse, B16/F1 melanoma-bearing; intravenous, 24 h; reference: tumour over blood): 151

CCC(=O)N(C)c1ccc(Cl)c(Cl)c1
revertant colonies (Salmonella typhimurium; Ames test; TA100; 5.00 mg/plate, with rat liver S9): 0 revertants/plate

CCCCn1cc(C(=O)O)c(=O)c2cc(F)c(Nc3cccc(Cl)c3)c(N)c21
IC50 (HCT-116; cell growth or viability, SRB): 0.84 µM

CC=C(C)C(=O)OC1C(O)C2OC(COC(=O)CCCCCCCCCC(CCCCC)OC3OC(C)C(OC(C)=O)C(O)C3O2)C1OC(=O)C=Cc1ccccc1 (stereo not drawn)
IC50 (MDA-MB-231; cytotoxicity): 0.0161 µM

COC1CC(=O)N(C)C=CCCCC(=O)N(C)C(C(C)C)C(=O)N(C)C(CC(C)C)C(=O)OC(C(C)C)CC(C)C1 (stereo not drawn)
IC50 (HCT-116; cytotoxicity, MTT; 48 h): 53.5 ± 7.5 µM

CCCCn1cc(C(=O)O)c(=O)c2cc(F)c(Nc3ccccc3Cl)c([N+](=O)[O-])c21
IC50 (HCT-116; cell growth, SRB; 72 h): 42.1 ± 1.79 µg/mL

[Cl-].[Cl-].[Ni+2].c1ccc(CN2CCNCCN(Cc3ccccc3)CCNCC2)cc1
IC50 (THP-1; cell growth or viability): > 20 µM

CCCCn1cc(C(=O)O)c(=O)c2cc(F)c3c(nnn3-c3cccc(Cl)c3)c21
IC50 (HCT-116; cell growth, SRB; 72 h): 34.9 ± 2.59 µg/mL

CN[C@](C)(C[18F])C(=O)O
tracer uptake (DU-145 tumour model; host not given, kidney; 30 min, tumour-bearing): 13 %ID/g

COC(=O)CCC(C)C1CCC2C3C(O)CC4CC(OC(=O)CCC(=O)OC5OC6OC7(C)CCC8C(C)CCC(C5C)C68OO7)CCC4(C)C3CCC12C (stereo not drawn)
IC50 (Vero E6; cytotoxicity; 24 h): > 100 µM

C[C@@](O)(C(F)F)[C@H](NC(=O)c1ccc(C#CC#CC2CC2)cc1)C(=O)NO
Cmax (CD-1 mouse; oral, 40 mg/kg, not fasted): 3 ± 2 µg/mL

CN1C(=O)[C@H](Cc2ccc(O)cc2)NC(=O)CNC(=O)[C@H](Cc2ccc(O)cc2)NC(=O)[C@H](CCC(=O)O)NC(=O)[C@H](Cc2ccc(O)cc2)N(C)C(=O)[C@H](Cc2ccc(O)cc2)N(C)C(=O)[C@H](CCC(N)=O)NC(=O)[C@H](Cc2c[nH]c3ccccc23)NC(=O)[C@H](Cc2ccc(O)cc2)NC(=O)[C@@H](Cc2ccc(O)cc2)NC(=O)CSC[C@@H](C(N)=O)NC(=O)[C@H](CCCCN)NC(=O)[C@@H]1Cc1ccc(O)cc1
AC50 (ipgm-1 (Caenorhabditis elegans, UniProt G5EFZ1); enzyme activity): 13.5 µM

CC[C@H](C)[C@H](NC(=O)[C@H](CCCCN)NC(=O)[C@H](CCCCN)NC(=O)[C@H](Cc1ccccc1)NC(=O)[C@H](Cc1ccccc1)NC(=O)[C@H](CCCCN)NC(=O)[C@H](CCCCN)NC(=O)[C@H](Cc1ccccc1)NC(=O)[C@H](CCCNC(=N)N)NC(=O)[C@@H](N)CCCCN)C(=O)N[C@@H](CCCCN)C(=O)N[C@@H](CCCCN)C(=O)N[C@@H](CO)C(=O)N[C@H](C(=O)N[C@@H](CCCCN)C(=O)N[C@@H](CCCCN)C(=O)N[C@@H](CCCNC(=N)N)C(=O)N[C@H](C(=O)N[C@@H](CCCCN)C(=O)N[C@@H](CCCCN)C(=O)N[C@@H](CC(C)C)C(=O)N[C@@H](Cc1ccccc1)C(=O)N[C@@H](CCCCN)C(=O)N[C@@H](CCCCN)C(=O)N1CCC[C@H]1C(=O)N[C@@H](CCCNC(=N)N)C(=O)N[C@H](C(=O)N[C@H](C(=O)N1CCC[C@H]1C(=O)N[C@H](C(=O)N[C@@H](CO)C(=O)N[C@H](C(=O)N1CCC[C@H]1C(=O)N[C@@H](Cc1ccccc1)C(=O)O)[C@@H](C)CC)[C@@H](C)CC)[C@@H](C)CC)C(C)C)C(C)C)C(C)C
IC50 (BEAS-2B; cytotoxicity, MTT; 48 h): > 128 µg/mL

CCCC(C)C1OC(=O)[C@H](C(C)C)N(C)C(=O)[C@H](CO)NC(=O)[C@H]([C@@H](C)C(N)=O)NC(=O)[C@@H]([C@H](C)OC(N)=O)NC(=O)[C@H](O)CNC(=O)/C=C/C=C/CC(O)C1C (stereo partly drawn)
IC50 (HCT-116; MTT; 24 h): > 25 µg/mL

CC=C(C)C(=O)OC1C(O)C2COC(=O)CCC(=O)CCCCCCC(CCCCC)OC3OC(C)C(OC(C)=O)C(O)C3OC(O2)C1O (stereo not drawn)
IC50 (MDA-MB-231; cytotoxicity): 7.13 µM

Repeated from above:
CCCCn1cc(C(=O)O)c(=O)c2cc(F)c3c(nnn3-c3cccc(Cl)c3)c21
IC50 (HCT-116; cell growth, SRB; 72 h): 34.9 ± 2.59 µg/mL

CCCCn1cc(C(=O)O)c(=O)c2cc(F)c(Nc3ccccc3Cl)c([N+](=O)[O-])c21
IC50 (HCT-116; cell growth, SRB; 72 h): 42.1 ± 1.79 µg/mL

COC1CC(=O)N(C)C=CCCCC(=O)N(C)C(C(C)C)C(=O)N(C)C(CC(C)C)C(=O)OC(C(C)C)CC(C)C1 (stereo not drawn)
IC50 (HCT-116; cytotoxicity, MTT; 48 h): 53.5 ± 7.5 µM
